{"data": "Assay results gathered from unrelated publications", "note": "Parts stem from different laboratories: compare values within a part only. Substitutions count along the parent as printed."}
{"data": "Set 1", "target": "ABI1, truncated, D143A, DHFR fusion (Arabidopsis thaliana)", "method": "DHFR PCA, deep sequencing", "sample": "yeast", "setting": "methotrexate growth selection, single substitutions", "together with": "(+)-ABA 710 µM", "relative to": "wild-type fitted maximum", "direction": "higher = stronger binding", "starting sequence": "PYL1, truncated, DHFR fusion (Arabidopsis thaliana); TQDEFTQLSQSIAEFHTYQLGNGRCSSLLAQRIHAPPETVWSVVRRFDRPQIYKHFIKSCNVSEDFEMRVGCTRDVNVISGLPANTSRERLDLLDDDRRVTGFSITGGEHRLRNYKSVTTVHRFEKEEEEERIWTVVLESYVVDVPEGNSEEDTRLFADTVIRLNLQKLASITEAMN; partner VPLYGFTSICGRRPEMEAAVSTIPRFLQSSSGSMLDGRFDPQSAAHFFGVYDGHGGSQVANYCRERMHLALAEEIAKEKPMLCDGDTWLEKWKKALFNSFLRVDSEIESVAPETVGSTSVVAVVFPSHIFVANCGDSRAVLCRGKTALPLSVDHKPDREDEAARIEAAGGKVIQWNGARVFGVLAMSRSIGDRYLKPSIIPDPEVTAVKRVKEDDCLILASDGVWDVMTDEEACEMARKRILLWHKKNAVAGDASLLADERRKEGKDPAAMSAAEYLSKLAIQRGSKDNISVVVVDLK"}
{"Variant": "I172E", "relative binding score [%]": 92.3}
{"Variant": "G148P", "relative binding score [%]": 86.1}
{"Variant": "W41E", "relative binding score [%]": -8.62}
{"Variant": "A158L", "relative binding score [%]": 103}
{"Variant": "T86V", "relative binding score [%]": 100}
{"Variant": "G102E", "relative binding score [%]": 52.1}
{"Variant": "V43Q", "relative binding score [%]": 94}
{"data": "Set 2", "target": "Sal-like protein 4, full length isoform A (SALL4, Homo sapiens, UniProt Q9UJQ4, residues 1-1053)", "method": "universal PBM", "form": "double-stranded DNA, one strand shown", "sample": "in vitro", "tested at": "600 nM", "setting": "8-mer, flanks averaged, mean of replicates", "direction": "higher = stronger binding", "UniProt Q9UJQ4, sequence (whole entry, looked up)": "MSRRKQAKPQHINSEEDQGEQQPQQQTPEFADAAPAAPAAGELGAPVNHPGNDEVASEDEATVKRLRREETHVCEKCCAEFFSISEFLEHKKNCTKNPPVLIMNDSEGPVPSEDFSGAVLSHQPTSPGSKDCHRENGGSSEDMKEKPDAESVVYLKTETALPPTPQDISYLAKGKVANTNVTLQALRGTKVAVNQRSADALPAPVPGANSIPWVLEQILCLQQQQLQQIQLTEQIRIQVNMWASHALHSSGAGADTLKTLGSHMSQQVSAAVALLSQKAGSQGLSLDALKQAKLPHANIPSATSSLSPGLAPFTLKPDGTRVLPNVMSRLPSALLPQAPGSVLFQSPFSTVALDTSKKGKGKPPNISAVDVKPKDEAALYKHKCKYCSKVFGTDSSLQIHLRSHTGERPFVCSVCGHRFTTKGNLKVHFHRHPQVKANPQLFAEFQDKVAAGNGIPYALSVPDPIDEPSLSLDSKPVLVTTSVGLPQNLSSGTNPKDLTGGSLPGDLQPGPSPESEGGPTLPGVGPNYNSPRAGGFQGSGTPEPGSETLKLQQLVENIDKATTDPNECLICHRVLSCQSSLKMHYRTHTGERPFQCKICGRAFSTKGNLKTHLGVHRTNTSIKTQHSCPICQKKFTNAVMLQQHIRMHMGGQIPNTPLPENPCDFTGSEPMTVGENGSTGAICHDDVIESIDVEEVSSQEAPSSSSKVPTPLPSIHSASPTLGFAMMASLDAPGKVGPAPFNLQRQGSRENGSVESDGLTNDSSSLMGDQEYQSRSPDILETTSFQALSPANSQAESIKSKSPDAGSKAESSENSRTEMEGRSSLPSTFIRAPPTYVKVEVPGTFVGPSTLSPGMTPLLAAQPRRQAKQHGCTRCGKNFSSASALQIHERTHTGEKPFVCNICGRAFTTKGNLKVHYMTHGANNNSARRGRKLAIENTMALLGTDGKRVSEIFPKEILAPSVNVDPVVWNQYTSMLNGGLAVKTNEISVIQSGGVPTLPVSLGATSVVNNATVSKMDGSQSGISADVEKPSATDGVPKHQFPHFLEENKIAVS"}
{"Oligonucleotide": "CGTAGTAC", "E-score": 0.0187}
{"Oligonucleotide": "TACCGTCA", "E-score": -0.073}
{"Oligonucleotide": "GGCGGAAC", "E-score": -0.294}
{"Oligonucleotide": "CTTTCATC", "E-score": -0.0413}
{"Oligonucleotide": "GAGTTTCC", "E-score": -0.0451}
{"Oligonucleotide": "CAGTGACC", "E-score": -0.312}
{"Oligonucleotide": "GGGCACGA", "E-score": -0.158}
{"Oligonucleotide": "CCCGAGTA", "E-score": -0.0361}
{"Oligonucleotide": "ACCCATCC", "E-score": -0.21}
{"Oligonucleotide": "TCCCGTCA", "E-score": -0.0509}
{"Oligonucleotide": "ATGGGAGA", "E-score": 0.0841}
{"data": "Set 3", "target": "Histone acetyltransferase KAT6A, both winged helices, GST fusion (KAT6A, Homo sapiens, UniProt Q92794, residues 1-181)", "method": "protein binding microarray", "form": "double-stranded DNA, one strand shown", "sample": "in vitro", "tested at": "not given", "setting": "8-mer, flanks averaged, mean of 2 arrays, mostly near background", "relative to": "not given", "direction": "higher = stronger binding", "Construct (chain)": "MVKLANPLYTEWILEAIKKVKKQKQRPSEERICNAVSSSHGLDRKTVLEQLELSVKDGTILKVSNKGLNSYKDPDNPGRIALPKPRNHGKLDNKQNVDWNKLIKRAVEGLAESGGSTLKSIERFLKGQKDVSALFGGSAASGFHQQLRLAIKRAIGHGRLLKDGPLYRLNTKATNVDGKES"}
{"Oligonucleotide": "GACGACGA", "E-score": -0.0802}
{"Oligonucleotide": "AACGCCAC", "E-score": 0.0105}
{"Oligonucleotide": "CCCTTTAA", "E-score": 0.00047}
{"Oligonucleotide": "AAATCAGC", "E-score": -0.204}
{"Oligonucleotide": "AACGAGTT", "E-score": -0.0989}
{"Oligonucleotide": "GAGGTGGA", "E-score": -0.149}
{"Oligonucleotide": "ATGCTCAC", "E-score": 0.115}
{"Oligonucleotide": "CAGATTTC", "E-score": -0.0714}
{"data": "Mixed results"}
{"Substance": "PhoQ, residues 284 288 289 292 302 303 HSYLQF", "target": "PhoP, residues 12 14 15 18 19 LHHSG (Escherichia coli, UniProt P23836)", "assay": "Sort-seq, measured: YFP reporter", "test system": "E. coli", "conditions": "PhoQ-PhoP variant library, together with: 10 µM Mg2+", "how to read": "relative to: high Mg2+ state, higher = stronger signaling", "measurement": "fold induction", "value": 22}
